Assay results from different studies.
Protocols differ between the studies behind these lines. pKd: −log10 of the molar value. Where no end group is shown, it is not given here.
RB1/E7 RB 55-787; E7 21-29 del245-267/del582-642: RB1/E7 RB ; E7 55-787 del245-267/del582-642, phosphorylated by Cdk2-CycA (human papillomavirus)
B1: avrPtoB 250-359 (Pseudomonas syringae, UniProt Q8RSY1); chain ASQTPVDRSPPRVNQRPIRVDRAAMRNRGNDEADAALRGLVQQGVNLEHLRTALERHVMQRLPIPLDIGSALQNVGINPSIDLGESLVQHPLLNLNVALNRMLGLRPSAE
B2: efb Efb-C domain 101-164 N138A (Staphylococcus aureus, UniProt A0A0H2XIH9); chain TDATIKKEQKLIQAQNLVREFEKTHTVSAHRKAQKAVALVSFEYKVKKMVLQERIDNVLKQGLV
Sequence of UniProt P80200 (whole entry, looked up): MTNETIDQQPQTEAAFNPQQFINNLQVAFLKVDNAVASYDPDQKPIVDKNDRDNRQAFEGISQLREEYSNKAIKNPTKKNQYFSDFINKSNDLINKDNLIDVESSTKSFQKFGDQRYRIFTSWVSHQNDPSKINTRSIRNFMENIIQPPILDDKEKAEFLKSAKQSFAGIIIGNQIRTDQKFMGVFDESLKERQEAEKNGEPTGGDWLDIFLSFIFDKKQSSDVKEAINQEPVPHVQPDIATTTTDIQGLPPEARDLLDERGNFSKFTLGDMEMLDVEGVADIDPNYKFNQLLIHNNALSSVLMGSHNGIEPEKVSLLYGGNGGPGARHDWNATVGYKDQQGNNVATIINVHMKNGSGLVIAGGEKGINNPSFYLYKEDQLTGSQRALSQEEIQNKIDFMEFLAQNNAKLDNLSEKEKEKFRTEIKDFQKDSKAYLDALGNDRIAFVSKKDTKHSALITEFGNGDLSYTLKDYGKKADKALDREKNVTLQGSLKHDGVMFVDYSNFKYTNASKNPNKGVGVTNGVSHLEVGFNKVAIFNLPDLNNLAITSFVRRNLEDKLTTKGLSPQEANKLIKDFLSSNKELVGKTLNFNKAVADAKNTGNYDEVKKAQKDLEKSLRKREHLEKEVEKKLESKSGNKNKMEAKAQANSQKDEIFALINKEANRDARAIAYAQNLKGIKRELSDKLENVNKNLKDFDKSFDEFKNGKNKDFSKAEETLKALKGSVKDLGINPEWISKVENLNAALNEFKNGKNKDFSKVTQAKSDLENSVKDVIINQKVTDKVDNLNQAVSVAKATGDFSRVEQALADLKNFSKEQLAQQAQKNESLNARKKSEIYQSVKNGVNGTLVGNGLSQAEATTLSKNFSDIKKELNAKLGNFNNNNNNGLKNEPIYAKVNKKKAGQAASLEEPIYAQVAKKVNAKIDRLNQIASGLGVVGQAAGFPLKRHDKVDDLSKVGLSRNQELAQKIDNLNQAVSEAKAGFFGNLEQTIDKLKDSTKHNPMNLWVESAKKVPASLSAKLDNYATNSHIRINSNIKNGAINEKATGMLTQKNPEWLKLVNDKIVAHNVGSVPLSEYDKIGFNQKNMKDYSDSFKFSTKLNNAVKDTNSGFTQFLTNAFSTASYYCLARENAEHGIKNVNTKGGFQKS
Sequence of UniProt Q94F62 (whole entry, looked up): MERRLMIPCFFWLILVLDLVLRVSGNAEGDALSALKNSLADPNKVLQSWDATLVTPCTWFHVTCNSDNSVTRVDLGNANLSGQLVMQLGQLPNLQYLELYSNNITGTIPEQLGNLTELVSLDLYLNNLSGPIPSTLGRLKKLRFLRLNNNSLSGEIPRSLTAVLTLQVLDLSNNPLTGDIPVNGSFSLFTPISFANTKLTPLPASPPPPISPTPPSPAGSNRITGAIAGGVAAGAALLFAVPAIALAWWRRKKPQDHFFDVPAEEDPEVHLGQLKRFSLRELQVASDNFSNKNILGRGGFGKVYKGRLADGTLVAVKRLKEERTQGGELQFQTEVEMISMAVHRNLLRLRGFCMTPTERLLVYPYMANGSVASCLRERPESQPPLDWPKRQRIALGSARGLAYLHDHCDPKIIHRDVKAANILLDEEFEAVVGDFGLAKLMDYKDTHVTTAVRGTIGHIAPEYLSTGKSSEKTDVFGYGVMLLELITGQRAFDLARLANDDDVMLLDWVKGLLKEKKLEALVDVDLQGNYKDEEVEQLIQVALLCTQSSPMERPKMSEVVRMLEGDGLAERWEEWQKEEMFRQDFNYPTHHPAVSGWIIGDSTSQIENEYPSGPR
Sequence of UniProt O60602 (whole entry, looked up): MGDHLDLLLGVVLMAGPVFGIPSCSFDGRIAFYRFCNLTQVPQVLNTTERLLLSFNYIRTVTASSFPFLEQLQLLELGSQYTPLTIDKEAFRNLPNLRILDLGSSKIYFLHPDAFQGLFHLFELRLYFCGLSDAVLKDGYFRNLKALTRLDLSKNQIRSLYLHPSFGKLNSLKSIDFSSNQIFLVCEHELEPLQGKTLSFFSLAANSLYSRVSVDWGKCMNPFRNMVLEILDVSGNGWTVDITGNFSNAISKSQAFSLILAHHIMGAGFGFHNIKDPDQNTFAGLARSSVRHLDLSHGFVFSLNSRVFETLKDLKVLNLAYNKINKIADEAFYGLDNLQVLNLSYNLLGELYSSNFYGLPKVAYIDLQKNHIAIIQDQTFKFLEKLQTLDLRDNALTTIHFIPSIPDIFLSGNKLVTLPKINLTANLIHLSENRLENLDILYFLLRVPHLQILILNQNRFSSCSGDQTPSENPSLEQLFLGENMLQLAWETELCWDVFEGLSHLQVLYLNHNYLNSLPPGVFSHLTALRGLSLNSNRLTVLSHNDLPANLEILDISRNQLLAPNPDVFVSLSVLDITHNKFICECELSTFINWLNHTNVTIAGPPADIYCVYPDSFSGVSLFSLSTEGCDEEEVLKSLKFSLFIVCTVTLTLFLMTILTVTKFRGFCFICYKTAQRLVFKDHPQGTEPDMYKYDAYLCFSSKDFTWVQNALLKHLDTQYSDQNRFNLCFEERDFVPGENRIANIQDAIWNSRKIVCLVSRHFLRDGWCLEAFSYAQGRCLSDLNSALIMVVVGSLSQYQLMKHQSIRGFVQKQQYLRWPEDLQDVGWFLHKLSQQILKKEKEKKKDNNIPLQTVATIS
Sequence of UniProt P01024 (whole entry, looked up): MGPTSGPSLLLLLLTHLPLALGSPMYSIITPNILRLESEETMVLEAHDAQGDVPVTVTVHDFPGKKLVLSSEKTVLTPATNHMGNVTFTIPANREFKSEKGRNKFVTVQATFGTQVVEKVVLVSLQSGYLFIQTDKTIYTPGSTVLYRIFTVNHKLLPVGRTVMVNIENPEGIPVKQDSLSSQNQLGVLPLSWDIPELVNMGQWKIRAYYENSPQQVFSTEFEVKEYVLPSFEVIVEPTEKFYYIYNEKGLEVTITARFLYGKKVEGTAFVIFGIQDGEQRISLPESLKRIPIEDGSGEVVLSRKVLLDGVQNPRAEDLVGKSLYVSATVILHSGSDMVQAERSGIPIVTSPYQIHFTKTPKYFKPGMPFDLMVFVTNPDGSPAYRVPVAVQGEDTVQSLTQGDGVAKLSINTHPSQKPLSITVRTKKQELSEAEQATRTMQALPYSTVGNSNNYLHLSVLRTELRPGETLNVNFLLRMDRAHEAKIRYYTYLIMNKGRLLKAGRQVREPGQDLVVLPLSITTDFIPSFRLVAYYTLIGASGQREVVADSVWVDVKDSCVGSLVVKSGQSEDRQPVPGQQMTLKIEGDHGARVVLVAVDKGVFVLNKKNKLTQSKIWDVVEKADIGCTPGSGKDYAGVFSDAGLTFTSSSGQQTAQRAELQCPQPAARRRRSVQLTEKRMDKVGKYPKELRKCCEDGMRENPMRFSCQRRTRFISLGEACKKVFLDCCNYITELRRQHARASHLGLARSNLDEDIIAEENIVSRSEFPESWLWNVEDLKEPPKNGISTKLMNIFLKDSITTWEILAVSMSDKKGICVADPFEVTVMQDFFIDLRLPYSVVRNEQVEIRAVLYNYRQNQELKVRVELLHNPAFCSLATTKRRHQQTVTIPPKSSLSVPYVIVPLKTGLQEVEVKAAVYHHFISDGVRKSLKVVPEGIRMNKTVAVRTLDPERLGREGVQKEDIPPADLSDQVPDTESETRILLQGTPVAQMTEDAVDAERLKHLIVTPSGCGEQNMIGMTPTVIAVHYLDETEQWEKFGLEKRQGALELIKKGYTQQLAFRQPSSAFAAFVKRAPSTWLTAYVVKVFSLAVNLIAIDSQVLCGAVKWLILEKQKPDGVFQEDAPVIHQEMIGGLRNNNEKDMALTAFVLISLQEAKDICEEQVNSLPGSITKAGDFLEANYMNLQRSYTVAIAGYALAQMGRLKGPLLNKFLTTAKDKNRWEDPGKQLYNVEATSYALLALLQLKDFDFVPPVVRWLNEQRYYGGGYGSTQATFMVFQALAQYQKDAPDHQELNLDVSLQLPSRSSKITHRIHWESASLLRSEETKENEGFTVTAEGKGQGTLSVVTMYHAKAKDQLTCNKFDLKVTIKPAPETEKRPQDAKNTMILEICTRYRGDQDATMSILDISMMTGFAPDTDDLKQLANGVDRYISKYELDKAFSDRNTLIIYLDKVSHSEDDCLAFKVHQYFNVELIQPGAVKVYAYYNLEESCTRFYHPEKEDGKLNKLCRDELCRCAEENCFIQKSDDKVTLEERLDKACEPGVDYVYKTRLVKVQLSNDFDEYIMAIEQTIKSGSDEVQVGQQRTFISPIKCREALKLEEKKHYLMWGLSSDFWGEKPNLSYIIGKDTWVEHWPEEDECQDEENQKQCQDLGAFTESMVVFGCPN

Substance | tested on | assay | test system | setting | scale | measurement | value
B1 (avrPtoB 250-359) | BAK1 kinase domain 250-591, pT446/pT449/pT450 (Arabidopsis thaliana, UniProt Q94F62) | ITC |  |  |  | pKd | 5.46
RmS-3, glycosylated (Rhipicephalus microplus) | F10 factor Xa (Bos taurus) | chromogenic substrate hydrolysis, inhibitor |  | 1 µM |  | protease inhibition | < 20%
fliC Q89A/R90A/Q97A (Salmonella enterica) | TLR5 (Homo sapiens, UniProt O60602) | NF-κB luciferase reporter | HEK293 | EC50 ratio | reference: CBLB502 EC50, higher = weaker activity | decrease in NF-κB reporter signaling | 120 fold
RUNX3 P1A in PPPY motif | CagA (Helicobacter pylori, UniProt P80200) | cycloheximide chase | COS-7 | co-expressed with CagA |  | half-life | > 3 h
melittin |  | CD titration | POPC 90% POPG 10% vesicles | pH 7.0, 60 °C |  | free energy of partitioning | -6.77 kcal/mol
RmS-17, glycosylated (Rhipicephalus microplus) | kallikrein (Sus scrofa) | chromogenic substrate hydrolysis, inhibitor |  | 1 µM |  | protease inhibition | < 20%
B2 (efb Efb-C domain 101-164 N138A) | iC3b C3 fragments 23-667 (Homo sapiens, UniProt P01024) | SPR |  |  | reference: C3b, higher = tighter binding than C3b | relative affinity | > 20 fold
LDYHFGLEEGEGIRDLFD (E2F1 409-426 (Homo sapiens, UniProt Q01094)) | RB1/E7 RB 55-787; E7 21-29 del245-267/del582-642 | ITC |  | pH 8.0, NaCl 100 mM, added: LxCxE peptide 100 µM |  | pKd | 6.47
STKKLSECLKRIGDELDSNMELQR (Bax BH3 peptide BH3 domain) | M11 1-136 (UniProt P89884) | ITC | peptide | 14 °C, single-site model |  | pKd | 5.40
{TMR}-QDDYLWGLEAGEGISDLFD (E2F2 409-428 (Homo sapiens); N-terminal TMR label; TMR = tetramethylrhodamine dye) | RB1/E7 RB 55-787; E7 21-29 del245-267/del582-642 | fluorescence polarisation | peptide | pH 8.0, NaCl 100 mM, two-site fit, added: E7 LxCxE peptide 10 µM |  | pKd | 7.80
HBA1/HBB mature (human) (sequence not shown) | isdB (Staphylococcus aureus, UniProt A6QG30) | BLI |  |  |  | pKd | 7.26
RmS-6, glycosylated (Rhipicephalus microplus) | kallikrein (Sus scrofa) | chromogenic substrate hydrolysis, inhibitor |  | 1 µM |  | protease inhibition | < 20%
SipD fragment C244S/S331C, MTSL spin label at 331 (Salmonella) (sequence not shown) | PrgI fragment (Salmonella) | NMR paramagnetic relaxation enhancement |  |  |  | binding | binds

For quick reference, copied from above:
Substance | tested on | assay | test system | setting | scale | measurement | value
B1 (avrPtoB 250-359) | BAK1 kinase domain 250-591, pT446/pT449/pT450 (Arabidopsis thaliana, UniProt Q94F62) | ITC |  |  |  | pKd | 5.46
RmS-3, glycosylated (Rhipicephalus microplus) | F10 factor Xa (Bos taurus) | chromogenic substrate hydrolysis, inhibitor |  | 1 µM |  | protease inhibition | < 20%
